Published values from different studies.
Each numbered part is a random draw from the data of one study; scales do not carry over between parts. Changes are numbered by the printed parent chain.

Block 1 — technique: DHFR PCA, deep sequencing; matrix: yeast; with: (+)-ABA 0.0091 µM; reference: wild-type fitted maximum; direction: higher = stronger binding; measurement: relative binding score
Target: ABI1, truncated, D143A, DHFR fusion (Arabidopsis thaliana)
Notes: methotrexate growth selection, single substitutions
Parent: PYL1, truncated, DHFR fusion (Arabidopsis thaliana); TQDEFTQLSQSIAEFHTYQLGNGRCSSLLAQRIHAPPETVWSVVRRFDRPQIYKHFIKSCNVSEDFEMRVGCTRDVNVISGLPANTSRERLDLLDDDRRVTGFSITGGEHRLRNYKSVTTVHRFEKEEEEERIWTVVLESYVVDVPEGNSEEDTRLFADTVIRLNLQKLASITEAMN; partner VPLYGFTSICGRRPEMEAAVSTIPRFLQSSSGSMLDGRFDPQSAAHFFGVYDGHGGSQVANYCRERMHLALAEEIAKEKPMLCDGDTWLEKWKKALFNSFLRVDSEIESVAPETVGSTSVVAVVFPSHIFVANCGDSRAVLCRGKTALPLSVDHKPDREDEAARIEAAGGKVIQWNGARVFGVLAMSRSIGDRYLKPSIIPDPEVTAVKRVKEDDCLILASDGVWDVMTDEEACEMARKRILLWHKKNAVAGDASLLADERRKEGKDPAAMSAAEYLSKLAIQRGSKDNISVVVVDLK
V121N: -6.24%
T86V: 52.2%
V136T: -4.12%
G23S: 6.69%
H55A: 21.1%
D153R: -4.36%
D96V: 2.42%
E38A: 7.26%
I12F: -4.9%
V143D: -2.54%
F56G: 2.88%

Block 2 — target: CCNB3, cyclin fold, Cln2 fusion (human); technique: yeast growth competition, sequencing; matrix: yeast; notes: weak parent motif; reference: not given; direction: higher = stronger binding; measurement: normalised enrichment score
Parent: CDC6 docking peptide (human); TLKGRRLVFDNQL
D10T: 0.217
Q12M: 0.439
N11T: 0.127
L7P: -0.16
T1K: 0.449
K3D: 0.146
L7T: 0.224
K3V: 0.509
F9V: -0.591
F9E: 0.143
K3C: 0.363

Block 3 — technique: competition protein-binding microarray; molecule type: double-stranded DNA, one strand shown; matrix: in vitro; concentration: 2 µM; with: Pho4 competitor, 0.05 µM; direction: higher = stronger binding; measurement: fluorescence intensity; constant ends, left off below: … GTCTTGATTCGCTTGACGCTGCTG
Target: Centromere-binding protein 1, full length, His-tagged (CBF1, Saccharomyces cerevisiae, UniProt P17106, residues 1-351)
UniProt P17106, sequence (whole entry, looked up): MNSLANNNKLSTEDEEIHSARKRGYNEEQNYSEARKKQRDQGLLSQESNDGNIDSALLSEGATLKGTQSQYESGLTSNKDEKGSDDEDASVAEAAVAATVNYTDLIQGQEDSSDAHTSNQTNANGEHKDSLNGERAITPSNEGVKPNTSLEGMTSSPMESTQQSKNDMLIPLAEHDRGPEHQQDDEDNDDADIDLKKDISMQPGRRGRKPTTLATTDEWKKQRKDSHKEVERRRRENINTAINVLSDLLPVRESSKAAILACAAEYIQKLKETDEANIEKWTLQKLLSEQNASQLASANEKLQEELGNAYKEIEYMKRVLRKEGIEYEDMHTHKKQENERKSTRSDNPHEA
Notes: whole 60-bp probe, lowest competitor level
CCGGTTTTGTAGGACTAGGTGTGTTCAGTGGTGGCT: 64.3 a.u.
GGCCTTCAGGCTTTGCACGCTAGCACACACCTTGGC: 55.5 a.u.
CGTCCTAGTGATTGGGGAGTGGGTGCCATGAGGAAG: 77.6 a.u.
CCGACCACTGGGATCCACATGTCCTTGTCTCTCAGG: 80.3 a.u.
TTTCCGCACAAGCACCATGTGTGAAAACATGCAGAT: 94.6 a.u.
TTATATCAACCGTATGGCGTGCTTTAGCTGCAATAA: 84 a.u.
CATATGGAGCATTTGCACGGGCCCTCAGGATAGAAG: 91.5 a.u.
CGCCTTGTGCTACTGGACGTGTGTTTGGTTTTATGT: 66.2 a.u.
TGCGCAACAACTTGAGTGGTGGGTGTATGTCTAGAA: 61.4 a.u.
TGGGGTGTCTGCCATCACGCTTTCCATTTGCACTGT: 98.2 a.u.
CAACGATTGATTACGCAGATGACTAACCGCCAGTCA: 77.9 a.u.
TCGCGCCCTGTCAGGAACATGATGTCCGCCATTTGA: 67.6 a.u.
TCAAAACCAAGAATTGATGTGCAGGAAAATGAAGAT: 77.2 a.u.
GCGCGACTTGCAAGAAAAGGCATAATTGTGGCGAGG: 77 a.u.
AAATTACTAAGTTGCCGAGTGGGTGACGCCGTATGA: 65.7 a.u.

Single results of other studies
PhoQ, residues 284 288 289 292 302 303 TVTVVA
fold induction (PhoP, residues 12 14 15 18 19 MHTVL (Escherichia coli, UniProt P23836); Sort-seq, refers to: YFP reporter; E. coli; PhoQ-PhoP variant library, with: 10 µM Mg2+; reference: high Mg2+ state, higher = stronger signaling): 13.9

Excerpt of the above (block 3):
CATATGGAGCATTTGCACGGGCCCTCAGGATAGAAG: 91.5 a.u.
CGCCTTGTGCTACTGGACGTGTGTTTGGTTTTATGT: 66.2 a.u.
TGCGCAACAACTTGAGTGGTGGGTGTATGTCTAGAA: 61.4 a.u.
TGGGGTGTCTGCCATCACGCTTTCCATTTGCACTGT: 98.2 a.u.
CAACGATTGATTACGCAGATGACTAACCGCCAGTCA: 77.9 a.u.
